Results gathered from unrelated publications.
Numbered parts are unrelated; each lists some results of a single study. Substitutions count along the parent as printed.
Sequence of UniProt P51965 (whole entry, looked up): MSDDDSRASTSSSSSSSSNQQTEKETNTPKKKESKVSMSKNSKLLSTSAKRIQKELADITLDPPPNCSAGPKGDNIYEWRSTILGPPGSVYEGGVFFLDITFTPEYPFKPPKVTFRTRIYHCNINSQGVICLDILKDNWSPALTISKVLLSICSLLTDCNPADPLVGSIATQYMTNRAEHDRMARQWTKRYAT
Sequence of UniProt Q13404 (whole entry, looked up): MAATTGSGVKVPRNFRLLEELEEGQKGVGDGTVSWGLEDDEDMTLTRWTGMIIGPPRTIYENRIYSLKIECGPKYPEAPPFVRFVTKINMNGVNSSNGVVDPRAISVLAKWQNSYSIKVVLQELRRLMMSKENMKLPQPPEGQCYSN
Sequence of UniProt P61077 (whole entry, looked up): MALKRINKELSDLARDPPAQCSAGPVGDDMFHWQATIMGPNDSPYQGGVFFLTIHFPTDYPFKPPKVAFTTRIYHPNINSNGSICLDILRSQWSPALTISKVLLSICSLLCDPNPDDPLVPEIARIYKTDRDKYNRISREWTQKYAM

Set 1
Target: CCNB1, cyclin fold, Cln2 fusion (human)
Technique: yeast growth competition, sequencing
Medium: yeast
Notes: strong parent motif
Baseline: not given
Direction: higher = stronger binding
Starting sequence: BRCA2 docking peptide (human); PSIKRNLLNEFDR; partner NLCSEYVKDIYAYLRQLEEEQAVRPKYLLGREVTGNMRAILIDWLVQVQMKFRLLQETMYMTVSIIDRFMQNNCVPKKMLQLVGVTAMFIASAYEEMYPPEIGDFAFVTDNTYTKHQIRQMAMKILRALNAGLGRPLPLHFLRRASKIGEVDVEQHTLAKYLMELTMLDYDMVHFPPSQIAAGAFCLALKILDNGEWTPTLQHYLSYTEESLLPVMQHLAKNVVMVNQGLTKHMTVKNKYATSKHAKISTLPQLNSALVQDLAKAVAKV
Substitution | normalised enrichment score
PSIKRNLLIEFDR [N9I] | 3
PMIKRNLLNEFDR [S2M] | 1.82
PSIKRNLLNEFHR [D12H] | 0.623
PSIERNLLNEFDR [K4E] | 2.74
PSIKDNLLNEFDR [R5D] | 0.486
PSIKRVLLNEFDR [N6V] | 0.498
PSIKRNLANEFDR [L8A] | 1.16
PSIKRNLLNECDR [F11C] | 0.137
PWIKRNLLNEFDR [S2W] | -0.386
PSIKRNLLNEFDQ [R13Q] | 2.44
PSIKRNLLTEFDR [N9T] | 2.16
HSIKRNLLNEFDR [P1H] | 2.61
PSIKRNLLNEWDR [F11W] | 0.0277
PSIKRNLLNESDR [F11S] | -1.1

Set 2
Target: RNA binding protein fox-1 homolog 2, RRM domain, GST-SBP tag (RBFOX2, Homo sapiens, UniProt O43251-10, residues 100-194)
Technique: RNA Bind-n-Seq
Form: RNA
Medium: in vitro
Tested at: 365 nM
Notes: natural RNA segment, single round, ends assumed
Baseline: no-protein control
Direction: higher = stronger binding
All sequences stand within: GGGAGUUCUACAGUCCGACGAUC … UGGAAUUCUCGGGUGCCAA
Residues (chain): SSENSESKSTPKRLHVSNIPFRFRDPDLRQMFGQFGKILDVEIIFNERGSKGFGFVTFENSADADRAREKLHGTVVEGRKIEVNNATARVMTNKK
Oligonucleotide | RBNS enrichment (R)
GGCCCCUUCCUCGUCCUUUCCUUUUGCCUUUGAGACCAAACCAAGUGCUUCCAAAUUCUUUUGGUGCAAUUGAGGAGAUAUGCCAGAUGCUUAAACACAUUUAAUUGCUG | 0.346
GUGUUCGGGGGCCUCUGGCUGCUGAAGGAUUCGGUCUACCACGGAGGGCUGUGCUGUUAGGCUGCAUCCCACUCAAAAUACAGGAAAAGCACGAAUCAUGAUUCUGCUUU | 0.214
UUCACAAAAAUAGUCCUUUGUCAUUACAUUAUUUACUCAUGUGUUUGUACAUUUUUGUAUGUUAAUUUAUGAAUGAUUUUUUCAGUAAAAAAUACAUAUUCAAGAACCAA | 0.708
GCUUUCCUGGGCCUCUCAGUUGAACAAAGCAGCAAAACAAAGGCAGUUUUAUAUGAAAGAUUAGAAGCCUGGAAUAAUCAGGCUUUUUAAAUGAUGUAAUUCCCACUGUA | 0.433
CAACAGCUACAUUAUAUUUCCUUCUGACACUUGGAAGGUAUUGAAAUUUCUAGAAAUGUAUCCUUCUCACAAAGUAGAGACCAAGAGAAAAACUCAUUGAUUGGGUUUCU | 0.404
UUACCGGUGAAAGUCACAGGUACCUUUAUCUAUGAUGAAUGUAAUGUGUUAGAUGGUGACCGAAGUGUUCUCCACUACACCUGUCUGAAGAGAUCUAAGUCUGAUAUUUA | 0.324
AAGCAAUAUUUCCCUGGAAUUUAAUUCAAAGUUUGUGGCAUACAACCUGAGCCUUUUCUUAUAUAAGACAAGAAUAUGUUCACAUCUUGGUAUGUGGCCAUAUUUAUAGA | 0.803
GCAGCUAAGCUGAAAGUGCCCAGCAGGUGCAAAGGGGAAAAAGAACAAGGUUUGAGGAGGAAGUAGUUGCCUGUCCCAGCCUCAUCUGCUGAGCUCUUUAAGGAAGGUGG | 1.53
AAAAUGCCUUUUUUGGAAGGACUAACAGAAAGCACCUGAUUUGCACUUGAACCAGAUUAUAGAUUUAAAAGUAUAUGACAUGUAUUUUGUAUUUAAAACUAGAAUAGCCA | 0.722
CCUUGGGCUUUUCCUGUCCCUAGGUGCUGAGCCCCAAUCCCCCUUUCCUCCUGAGAACUCAUGUUGCUGCCCUGGUUCUUUCUACAGCUCUGGGAUUUAGGGGGAGCCAA | 0.479
CAAAUGCUAGCAUGUACUGUAUGGGAGGAUGAUCCAGAUGUUUCAAAGAGAAUUUCUCUUAGUUUAGUUAGGUGUAAUUCAGUAGCUUUAAAUUCUCAGGUCAGAACAUA | 21.4
AGUUUCCCAUUUCCCUUUCUUAGAUUGCACCAGUGAAGGAGAUGUUUUGCAAAGAUUCAGAGAACUAAUUUUUCACUGGAUAAGACCUGAGUAACCCAGACCCCCCACCG | 2.3

Set 3
Target: ABI1, truncated, D143A, DHFR fusion (Arabidopsis thaliana)
Technique: DHFR PCA, deep sequencing
Medium: yeast
Notes: methotrexate growth selection, single substitutions
With: (+)-ABA 0 µM
Baseline: wild-type fitted maximum
Direction: higher = stronger binding
Starting sequence: PYL1, truncated, DHFR fusion (Arabidopsis thaliana); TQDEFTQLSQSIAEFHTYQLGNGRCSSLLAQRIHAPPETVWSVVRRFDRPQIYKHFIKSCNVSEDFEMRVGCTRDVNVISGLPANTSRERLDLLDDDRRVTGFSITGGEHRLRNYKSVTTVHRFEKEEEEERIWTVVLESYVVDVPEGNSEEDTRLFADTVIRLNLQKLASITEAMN; partner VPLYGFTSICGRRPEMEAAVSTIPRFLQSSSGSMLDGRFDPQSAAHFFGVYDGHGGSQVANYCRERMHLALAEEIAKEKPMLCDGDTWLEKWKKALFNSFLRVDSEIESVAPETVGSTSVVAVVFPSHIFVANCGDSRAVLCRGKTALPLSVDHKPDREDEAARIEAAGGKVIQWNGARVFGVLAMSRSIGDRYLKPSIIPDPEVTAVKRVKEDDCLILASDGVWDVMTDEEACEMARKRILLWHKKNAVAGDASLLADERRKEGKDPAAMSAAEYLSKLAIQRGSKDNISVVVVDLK
Substitution | relative binding score
V43F | 6%
T119I | -0.165%
I172W | 1.43%
I133T | 33.7%
I79H | 19.6%
Q167Y | -9.68%
R46E | -3.46%
G21N | 12.4%
T173S | 26.2%
R69Q | 19.4%
S140L | 4.11%
I33D | 0.0294%
I105T | -1.44%
C60V | 36.7%
L20D | 24.9%
L166R | 2.69%
E130R | 28.1%

Set 4
Sequence: B1 (RING1 RING domain)
Technique: yeast two-hybrid
Medium: yeast
Notes: mostly zero background
Baseline: not given
Direction: higher = stronger interaction
B1: RING1 RING domain (UniProt Q06587); chain SPRSLHSELMCPICLDMLKNTMTTKECLHRFCSDCIVTALRSGNKECPTCRKKLVSKRSLR
target | lacZ reporter activity
UBE2E1 UBC core domain (UniProt P51965) | 0
UBE2V1 UBC core domain (UniProt Q13404) | 0
UBE2D3 UBC core domain (UniProt P61077) | 0

Set 5
Target: CREB3L2, bZIP domain (human)
Technique: DHFR protein complementation
Medium: yeast
Notes: single substitutions, most at no-binding floor
Baseline: wild-type JUN-FOS pair
Direction: higher = stronger binding
Starting sequence: JUN, bZIP domain (human); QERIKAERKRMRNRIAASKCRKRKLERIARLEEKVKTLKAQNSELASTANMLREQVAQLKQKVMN; partner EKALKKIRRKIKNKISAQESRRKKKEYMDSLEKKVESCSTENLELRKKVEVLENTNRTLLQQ
Substitution | binding fitness
A29V | -1.56 natural log
E32D | -1.53 natural log
V56T | -1.51 natural log
T37I | -1.53 natural log
K34A | -1.51 natural log
E32Y | -1.41 natural log
A49H | -1.52 natural log
I28Q | -1.5 natural log
R30M | -1.43 natural log
V35R | -1.55 natural log
V35H | -1.55 natural log
I28S | -1.3 natural log
S47E | -1.41 natural log
E54G | -1.49 natural log
E54W | -1.5 natural log
M51D | -0.972 natural log
A46T | -1.41 natural log
A46C | -1.54 natural log
L38P | -1.5 natural log
N42H | -1.5 natural log
S47T | -1.5 natural log
L31D | -1.53 natural log
A49L | -1.38 natural log
K34W | -1.55 natural log

Set 6
Target: Ras GTPase-activating protein-binding protein 1, full length (G3BP1, Homo sapiens, UniProt Q13283)
Sequence of UniProt Q13283 (whole entry, looked up): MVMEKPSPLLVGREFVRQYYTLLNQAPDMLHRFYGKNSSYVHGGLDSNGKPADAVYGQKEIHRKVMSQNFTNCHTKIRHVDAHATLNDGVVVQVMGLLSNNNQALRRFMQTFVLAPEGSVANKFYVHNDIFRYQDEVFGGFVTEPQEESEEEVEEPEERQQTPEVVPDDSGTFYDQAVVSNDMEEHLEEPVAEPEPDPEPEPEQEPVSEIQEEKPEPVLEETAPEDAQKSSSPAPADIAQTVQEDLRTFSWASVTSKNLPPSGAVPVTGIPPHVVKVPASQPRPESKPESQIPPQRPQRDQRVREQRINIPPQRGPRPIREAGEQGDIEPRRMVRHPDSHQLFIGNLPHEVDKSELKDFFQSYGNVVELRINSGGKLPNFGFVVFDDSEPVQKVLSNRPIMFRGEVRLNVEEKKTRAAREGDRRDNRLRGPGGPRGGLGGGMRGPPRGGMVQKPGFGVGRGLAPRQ
Technique: RNA Bind-n-Seq
Form: RNA
Medium: in vitro
Tested at: 200 nM
Notes: whole 134-nt RNA, ends assumed
With: 150 mM LiCl
Baseline: input library
Direction: higher = stronger binding
Each molecule: 7-deaza-guanosine replaces G
All sequences stand within: GGGAGUUCUACAGUCCGACGAUC … UGGAAUUCUCGGGUGUCAAGG
Oligonucleotide | log2 enrichment
GCAGGAAGUAAAAACAAAUGGAAAUGCUUCGGAUAGUGGCAGGGGUGGGGGUUGCUAAGGAAAGGGUGCGAUGGGAGUGGGUAAAGAGUU | -0.164
UCCUGUGCUACACAUCGUAUGUACCGAAUCGGGGUUUUUUGGUUUUUUGGGUUUUUUGGGAAAGUAUUAUGUUACGCCGUUCGGAUCUGC | -0.16
CACAAAAAACACGCACCCACACAGACACAGAGGGAAGGGGUUGGGAUGGGGACAGGGUGCACAGCAGGGCGGGGUAGGACCCCAGCCCCU | 0.415
UUGUGGAAAGGAGGAGAACCCCUGCUGAAAUUCGAGAGGAGUUUGAGCGGCUGCAGAGAGAGAGAGAAGAGAGGAGAUUGCAGCAGCGAA | -1.05
GUCCUGUGCUACACAUCGUAUGUACCGAAUCGGAAAAAGGGAAAAAGGGGAAAAAGGGAAAGUAUUAUGUUACGCCGUUCGGAUCUGCAC | -0.163
CUCAAGUCCUGUGCUACACAUCGUAUGUACCGAAUCGGAGGUGGUUUUUUUGGAAAGUAUUAUGUUACGCCGUUCGGAUCUGCACUUCCA | -0.492
UGGCCCUGGUGGCAUGCGGGGAGGAAGAGGUGGCCUCAUGGAUAGUGGUGGUCCCGGUGGAAUGUUCAGAGGUGGCCGUGGUGGAGACAG | 0.14
UGUCUGGUGACAAGGAAGAGGAUGCUCCUCAUAGAGAAGAUUACUUUGAGCCCAUUUCUCCUGAUCGGAAUUCUGUUCCCCAGGAAGGGC | -1.31
UAACUUUAGAGGAGGAUCUGAUGGAUAUGGAAGUGGACGUGGAUUUGGGGAUGGCUAUAAUGGGUAUGGAGGAGGACCUGGAGGUGGCAA | 0.0382
CCUGUGCUACACAUCGUAUGUACCGAAUCGGGUUUUUUUGGGGUUUUUUUGGUUUUUUUGGAAAGUAUUAUGUUACGCCGUUCGGAUCUG | 1.17
GCUUUGCCUUCACUUAUUUCUUUGCUUUUUAAAAACUAUUUGUAAUGUAAUUUUAAUGCAUUUUUUACAGGCCCAGUAAUGGUUAAAUAC | 0.453

Set 7
Target: Sal-like protein 4, full length isoform B (SALL4, Homo sapiens, UniProt Q9UJQ4-2, residues 1-616)
Technique: universal PBM
Form: double-stranded DNA, one strand shown
Medium: in vitro
Tested at: not given
Notes: 8-mer, flanks averaged, mean of replicates
Direction: higher = stronger binding
Oligonucleotide | E-score
AGGACGAC | -0.248
ATCAGGCC | -0.0934
GATTGGGC | -0.105
CGGGAGAC | -0.205
AAGCGCCA | -0.118
AGGGACTG | -0.174
CCTCTCTC | -0.0327
ACAAAGGG | -0.0152
CAAGGTTA | -0.0883
AGTGTAGC | -0.114
CTGCTCAA | -0.102
ATAGGCAT | 0.126
AGTTGACA | 0.126
CAGTTGGA | -0.0889
ATGGTCCA | -0.0542
CTAGAAAC | -0.0708
AGCGTCTC | -0.242
AAATCAGT | 0.127
GCCGCACA | -0.0901
CATAGGAA | 0.143
CTTTCGAC | 0.0468
CGGTAAGC | -0.162
GCGAGACC | -0.14
GCCACCCC | -0.308
CCAAAGTA | 0.088

Repeated from above (set 5):
Substitution | binding fitness
N42H | -1.5 natural log
A29V | -1.56 natural log
A49H | -1.52 natural log
E54G | -1.49 natural log
S47T | -1.5 natural log
M51D | -0.972 natural log
V35R | -1.55 natural log
